Measurements gathered from unrelated publications.
± gives the spread as reported.
UniProt P51659, sequence (whole entry, looked up): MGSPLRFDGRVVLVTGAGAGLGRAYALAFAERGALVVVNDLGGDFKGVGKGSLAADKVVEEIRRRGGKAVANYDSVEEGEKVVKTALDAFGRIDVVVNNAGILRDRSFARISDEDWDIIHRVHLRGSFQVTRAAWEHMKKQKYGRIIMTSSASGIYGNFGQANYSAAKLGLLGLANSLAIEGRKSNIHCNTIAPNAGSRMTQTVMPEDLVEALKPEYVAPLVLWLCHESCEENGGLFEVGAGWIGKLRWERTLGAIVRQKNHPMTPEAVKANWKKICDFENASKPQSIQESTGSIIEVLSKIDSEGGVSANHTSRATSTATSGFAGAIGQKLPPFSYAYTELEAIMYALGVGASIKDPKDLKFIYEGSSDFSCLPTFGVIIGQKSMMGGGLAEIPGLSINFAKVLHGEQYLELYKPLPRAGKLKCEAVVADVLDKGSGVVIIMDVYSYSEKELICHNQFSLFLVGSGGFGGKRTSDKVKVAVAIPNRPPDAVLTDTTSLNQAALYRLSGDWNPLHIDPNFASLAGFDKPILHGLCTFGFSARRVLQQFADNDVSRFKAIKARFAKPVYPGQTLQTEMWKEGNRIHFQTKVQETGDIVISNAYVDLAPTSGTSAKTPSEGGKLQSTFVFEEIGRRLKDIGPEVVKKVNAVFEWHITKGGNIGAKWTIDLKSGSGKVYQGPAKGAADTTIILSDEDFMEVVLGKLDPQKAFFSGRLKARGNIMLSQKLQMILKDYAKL

Structure (SMILES) | target or system | test | test system | conditions | how to read | measurement | result
N#C[C@@]1(n2ccc(N)nc2=O)O[C@H](CO)[C@@H](O)[C@H]1O |  |  | CD-1 mouse, plasma | intravenous, 15 mg/kg |  | Tmax | 30 min
C[C@H]1CN(c2n[nH]c3nc(N[C@H]4CC[C@H](NS(=O)(=O)CCC(F)(F)F)CC4)ncc23)CCO1 | Peroxisomal multifunctional enzyme type 2 (HSD17B4, Homo sapiens, UniProt P51659) | inhibitor, Kinobeads competition profiling |  | 0.8 µM | reference: vehicle | relative abundance | 1.06
CCCCCCCC(=O)N[C@@H](CCCCN)C(=O)N[C@@H](CCCCN)C(=O)N[C@@H](C)C(=O)N[C@@H](CC(C)C)C(=O)N[C@@H](CCCCN)C(=O)N[C@@H](CC(C)C)C(=O)N[C@@H](C)C(=O)N[C@@H](CCCCN)C(=O)N[C@@H](CCCCN)C(=O)N1CCC[C@H]1C(=O)N[C@@H](CC(C)C)C(=O)N[C@@H](CCCCN)C(=O)N[C@@H](CC(C)C)C(=O)N[C@@H](CC(C)C)C(=O)N[C@@H](CCCCN)C(N)=O |  |  | mouse ICR CD1 female, whole blood | intravenous bolus, 3 mg/kg |  | Tmax | 3 ± 1.8 min
N=C(N)NC(=O)Cc1c(Cl)cccc1Cl | Plasmodium falciparum |  | GB4 |  |  | IC50 | 3.98 µM
O=C(O)C(O)(c1cccs1)c1cccs1 |  |  | human, cerebrospinal fluid | oral, 2 mg once daily, 5 days, median |  | Tmax | 480 min
NC(=O)c1cccc(-c2cc(OC(=O)NC3CCCCC3)ccc2O)c1 |  |  | mouse, plasma | oral, 10 mg/kg |  | Tmax | 30 min
N.N.O=C([O-])C1(C(=O)[O-])CCC1.[Pt+2] |  | measured: unbound platinum | human, plasma ultrafiltrate | intravenous, AUC 2, median, dose level -4 |  | Tmax | 36 min
O=S(=O)(c1cccc2c(Cl)cccc12)N1CCCNCC1 | Plasmodium falciparum |  | Dd2 |  |  | IC50 | 6.31 µM
Cc1ccc(F)c2cc(C(=O)N[C@@H]3CCC[C@H](N4CC[C@H](N(C)S(C)(=O)=O)C4)C3)[nH]c12 |  |  | CD1 mouse | oral, 100 mg/kg |  | Tmax | 72 min
COc1cccc2c1CCCC2CCCN1CCN(C2CCCCC2)CC1 (stereo not shown) |  |  | CD-1 mouse, male, plasma | intraperitoneal, 3 mg/kg |  | Tmax | 15 min
C[C@H](NC(=O)c1c(C(F)F)nn(C)c1Oc1cccc(C(F)(F)F)c1)c1ccc(C(=O)O)cc1 |  |  | human, plasma | 250 mg, cycle 1 day 8, median |  | Tmax | 30 min
CC/C(=C(\c1ccccc1)c1ccc(OCCN(C)C)cc1)c1ccccc1 |  |  | CD-1 mouse, male, lung | intraperitoneal, 0.3 mg/kg |  | Tmax | 360 min
CCC[C@@](N)(CO)CCc1ccc(OCCCCCC(C)C)cc1 |  |  | dog | oral, 15 mg/kg |  | Tmax | 360 min
